Earlier results, collected from citations in different studies.
Lines come from different studies, so protocols differ.
Sequence of UniProt P18089 (whole entry, looked up): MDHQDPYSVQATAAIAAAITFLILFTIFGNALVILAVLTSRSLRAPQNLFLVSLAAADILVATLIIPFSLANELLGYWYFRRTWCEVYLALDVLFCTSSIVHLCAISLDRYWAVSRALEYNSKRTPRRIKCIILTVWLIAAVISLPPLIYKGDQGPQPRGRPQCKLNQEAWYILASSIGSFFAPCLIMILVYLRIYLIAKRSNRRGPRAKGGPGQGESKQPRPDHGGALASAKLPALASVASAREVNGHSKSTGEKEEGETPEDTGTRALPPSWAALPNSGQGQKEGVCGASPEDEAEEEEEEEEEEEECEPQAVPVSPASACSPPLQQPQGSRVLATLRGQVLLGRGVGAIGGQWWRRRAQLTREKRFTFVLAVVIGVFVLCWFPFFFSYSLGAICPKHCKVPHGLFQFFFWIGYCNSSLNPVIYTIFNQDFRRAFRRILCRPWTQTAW
Sequence of UniProt Q9Y4K4 (whole entry, looked up): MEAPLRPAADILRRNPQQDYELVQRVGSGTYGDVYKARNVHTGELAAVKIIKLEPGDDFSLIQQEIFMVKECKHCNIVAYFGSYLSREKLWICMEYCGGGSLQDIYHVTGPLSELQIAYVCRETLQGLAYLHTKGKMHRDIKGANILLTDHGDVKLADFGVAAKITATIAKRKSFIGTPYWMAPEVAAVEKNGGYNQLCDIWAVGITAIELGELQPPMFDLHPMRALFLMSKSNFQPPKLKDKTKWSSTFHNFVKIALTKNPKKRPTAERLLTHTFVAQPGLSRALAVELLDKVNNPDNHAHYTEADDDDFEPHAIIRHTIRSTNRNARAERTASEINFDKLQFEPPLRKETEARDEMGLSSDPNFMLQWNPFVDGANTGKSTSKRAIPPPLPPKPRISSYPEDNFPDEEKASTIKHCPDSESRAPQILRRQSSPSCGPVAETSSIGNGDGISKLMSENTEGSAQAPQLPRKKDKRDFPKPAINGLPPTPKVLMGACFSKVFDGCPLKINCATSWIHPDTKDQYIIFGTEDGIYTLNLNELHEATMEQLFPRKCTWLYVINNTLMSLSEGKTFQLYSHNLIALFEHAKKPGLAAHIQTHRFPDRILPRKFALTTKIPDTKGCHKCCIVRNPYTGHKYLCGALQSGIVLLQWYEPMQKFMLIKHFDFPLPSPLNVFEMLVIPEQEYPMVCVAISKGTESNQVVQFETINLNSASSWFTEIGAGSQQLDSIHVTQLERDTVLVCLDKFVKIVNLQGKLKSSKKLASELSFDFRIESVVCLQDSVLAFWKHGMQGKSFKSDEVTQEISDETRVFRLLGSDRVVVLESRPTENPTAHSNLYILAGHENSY
Sequence of UniProt Q9UNU6 (whole entry, looked up): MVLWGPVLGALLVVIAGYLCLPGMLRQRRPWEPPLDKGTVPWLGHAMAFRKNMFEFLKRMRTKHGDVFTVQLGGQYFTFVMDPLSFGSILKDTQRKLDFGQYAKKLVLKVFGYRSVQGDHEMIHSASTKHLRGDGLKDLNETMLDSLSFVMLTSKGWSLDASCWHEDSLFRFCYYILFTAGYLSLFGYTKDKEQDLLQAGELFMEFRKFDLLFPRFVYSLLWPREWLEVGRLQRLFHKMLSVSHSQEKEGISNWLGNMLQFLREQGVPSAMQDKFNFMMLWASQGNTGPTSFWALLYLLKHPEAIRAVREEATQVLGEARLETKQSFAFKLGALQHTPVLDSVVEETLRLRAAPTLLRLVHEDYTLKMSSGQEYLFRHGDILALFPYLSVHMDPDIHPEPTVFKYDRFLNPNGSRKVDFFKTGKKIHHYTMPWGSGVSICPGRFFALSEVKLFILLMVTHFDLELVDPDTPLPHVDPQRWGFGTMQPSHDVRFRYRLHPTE
Sequence of UniProt P24462 (whole entry, looked up): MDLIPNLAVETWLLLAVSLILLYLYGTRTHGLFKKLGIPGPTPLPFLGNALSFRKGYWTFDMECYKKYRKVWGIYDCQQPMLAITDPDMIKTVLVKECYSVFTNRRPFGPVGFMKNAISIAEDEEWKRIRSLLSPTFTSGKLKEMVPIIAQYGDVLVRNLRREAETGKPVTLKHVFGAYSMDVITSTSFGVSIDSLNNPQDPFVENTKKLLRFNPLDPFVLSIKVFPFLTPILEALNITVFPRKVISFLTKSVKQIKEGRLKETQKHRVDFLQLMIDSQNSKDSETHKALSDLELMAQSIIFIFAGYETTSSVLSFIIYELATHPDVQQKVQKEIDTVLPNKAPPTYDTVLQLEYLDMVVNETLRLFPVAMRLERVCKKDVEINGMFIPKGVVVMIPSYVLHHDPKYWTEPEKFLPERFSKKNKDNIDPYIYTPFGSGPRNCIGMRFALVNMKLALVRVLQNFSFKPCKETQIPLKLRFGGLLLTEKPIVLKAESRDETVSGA
Sequence of UniProt P05177 (whole entry, looked up): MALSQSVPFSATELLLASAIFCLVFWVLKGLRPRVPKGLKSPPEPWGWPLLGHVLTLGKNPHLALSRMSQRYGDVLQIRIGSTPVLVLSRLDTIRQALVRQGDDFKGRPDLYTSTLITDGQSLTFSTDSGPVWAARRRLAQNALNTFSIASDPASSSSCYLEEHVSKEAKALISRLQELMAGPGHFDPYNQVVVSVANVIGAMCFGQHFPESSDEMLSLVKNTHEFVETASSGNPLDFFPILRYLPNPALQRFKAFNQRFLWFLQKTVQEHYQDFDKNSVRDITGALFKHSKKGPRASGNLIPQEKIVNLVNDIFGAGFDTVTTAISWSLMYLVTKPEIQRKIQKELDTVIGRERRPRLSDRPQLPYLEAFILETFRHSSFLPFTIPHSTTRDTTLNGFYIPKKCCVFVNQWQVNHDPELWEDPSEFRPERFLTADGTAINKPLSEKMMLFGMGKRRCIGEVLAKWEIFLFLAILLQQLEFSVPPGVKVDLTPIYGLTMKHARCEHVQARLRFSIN
Sequence of UniProt P06536 (whole entry, looked up): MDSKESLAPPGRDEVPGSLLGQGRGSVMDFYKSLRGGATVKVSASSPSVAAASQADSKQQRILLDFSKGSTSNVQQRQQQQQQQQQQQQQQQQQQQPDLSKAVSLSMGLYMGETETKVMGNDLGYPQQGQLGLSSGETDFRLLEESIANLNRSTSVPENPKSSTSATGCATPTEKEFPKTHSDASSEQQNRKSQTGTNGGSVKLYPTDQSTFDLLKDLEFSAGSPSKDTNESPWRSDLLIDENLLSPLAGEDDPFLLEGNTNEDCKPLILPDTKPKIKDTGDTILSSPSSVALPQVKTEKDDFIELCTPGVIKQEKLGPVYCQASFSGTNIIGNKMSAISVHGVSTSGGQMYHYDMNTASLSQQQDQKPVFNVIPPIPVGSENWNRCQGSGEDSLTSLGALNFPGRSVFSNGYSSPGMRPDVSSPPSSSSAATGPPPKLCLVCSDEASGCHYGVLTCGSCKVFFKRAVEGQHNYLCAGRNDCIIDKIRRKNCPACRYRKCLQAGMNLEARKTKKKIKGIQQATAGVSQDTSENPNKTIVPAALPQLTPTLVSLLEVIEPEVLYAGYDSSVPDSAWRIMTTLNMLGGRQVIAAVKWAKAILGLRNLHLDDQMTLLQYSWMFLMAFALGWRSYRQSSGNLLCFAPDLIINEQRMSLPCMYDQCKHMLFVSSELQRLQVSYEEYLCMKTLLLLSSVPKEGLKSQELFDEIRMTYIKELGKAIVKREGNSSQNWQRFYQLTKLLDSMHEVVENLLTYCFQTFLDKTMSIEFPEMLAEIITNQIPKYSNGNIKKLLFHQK

Structure (SMILES) = Cc1[nH]c(C)c(-c2ccc(OCc3ccc(OC(F)(F)F)cc3)nc2)c(=O)c1Br; target or system = Plasmodium falciparum; assay = whole cell extended time; test system = 3D7; setting = 72 h; quantity = IC50; value = 140 nM
Structure (SMILES) = NS(=O)(=O)C(F)(F)C(F)(F)C(F)(F)C(F)(F)C(F)(F)C(F)(F)C(F)(F)C(F)(F)F; target or system = CYP2D6; setting = concentration not given; quantity = activity; value = inactive
Structure (SMILES) = CCCn1cc(C)c2c(=O)[nH]c(-c3cc(S(=O)(=O)N4CCN(CC)CC4)ccc3OCC)nc21; target or system = CYP3A4 and CYP3A5 (human); assay = substrate; test system = human liver microsomes; quantity = metabolized fraction; value = ~90%
Structure (SMILES) = Nc1cc(C(F)(F)F)c(-c2nc(N3CCOCC3)nc(N3CCOCC3)n2)cn1; target or system = MAP4K5 (Homo sapiens, UniProt Q9Y4K4); assay = enzyme activity; setting = 10 µM; scale = reference: untreated; quantity = remaining activity; value = 89%
Structure (SMILES) = CC(=O)Nc1ccc(O)cc1; target or system = UGT1A9; quantity = Vmax; value = 10900 pmol/min/mg protein
Structure (SMILES) = CO[C@H]1/C=C/O[C@@]2(C)Oc3c(C)c(O)c4c(O)c(c(/C=N/N5CCN(C)CC5)c(O)c4c3C2=O)NC(=O)/C(C)=C\C=C\[C@H](C)[C@H](O)[C@@H](C)[C@@H](O)[C@@H](C)[C@H](OC(C)=O)[C@@H]1C; target or system = P-glycoprotein (MDR1); assay = substrate; quantity = Km; value = 55 µM
Structure (SMILES) = C=CC(=O)Nc1cc(Nc2nccc(-c3cn(C)c4ccccc34)n2)c(OC)cc1N(C)CCN(C)C; target or system = CYP3A5; quantity = metabolism contribution; value = 9.6%
Structure (SMILES) = CNC(C)C1CCC(N)C(OC2C(N)CC(N)C(OC3OCC(C)(O)C(NC)C3O)C2O)O1 (centres unmarked); target or system = Pseudomonas aeruginosa; test system = clinical isolate RKI-No_67/14; quantity = MIC; value = > 8 µg/mL
Structure (SMILES) = O=C1Nc2ccc(Cl)cc2[C@@](C#CC2CC2)(C(F)(F)F)O1; target or system = 2A6; setting = Simcyp compound file; quantity = intrinsic clearance; value = 0.47 µL/min/pmol
Structure (SMILES) = CC1(C)S[C@@H]2[C@H](NC(=O)[C@H](N)c3ccccc3)C(=O)N2[C@H]1C(=O)O; target or system = Pseudomonas aeruginosa; test system = clinical isolate RKI-No_46/14; quantity = MIC; value = > 16 µg/mL
Structure (SMILES) = CC(O)c1cc(C(=O)N[C@@H](C)Cn2ccc(-c3ccc(C#N)c(Cl)c3)n2)[nH]n1 (some centres unmarked); target or system = BCRP (ABCG2); assay = inhibitor; setting = literature maximum; quantity = IC50; value = 1330 nM
Structure (SMILES) = CC(O)C(C)n1ncn(-c2ccc(N3CCN(c4ccc(OCC5COC(Cn6cncn6)(c6ccc(Cl)cc6Cl)O5)cc4)CC3)cc2)c1=O (centres unmarked); target or system = CYP3A4 human; assay = substrate; quantity = Km; value = 0.027 µM
Structure (SMILES) = CN/C(=N/CCSCc1nc[nH]c1C)NC#N; target or system = SLC22A2; assay = substrate; quantity = Km; value = 72.6 µM
Structure (SMILES) = CO[C@H]1C[C@@H]2CC[C@@H](C)[C@@](O)(O2)C(=O)C(=O)N2CCCC[C@H]2C(=O)O[C@H]([C@H](C)C[C@@H]2CC[C@@H](O)[C@H](OC)C2)CC(=O)[C@H](C)/C=C(\C)[C@@H](O)[C@@H](OC)C(=O)[C@H](C)C[C@H](C)/C=C/C=C/C=C/1C; target or system = Cytochrome P450 3A7 (CYP3A7, Homo sapiens, UniProt P24462); test system = enzyme incubation; quantity = fraction unbound in incubation; value = 0.43
Structure (SMILES) = O=C(O)CN1CCN(CC(=O)O)CCN(CC(=O)O)CC1; target or system = Cu2+; setting = Cu2+ + L- to CuL+; quantity = log K; value = 21.6
Structure (SMILES) = CC(C)c1nc(N(C)S(C)(=O)=O)nc(-c2ccc(F)cc2)c1/C=C/[C@@H](O)C[C@@H](O)CC(=O)O; target or system = BCRP; test system = human; setting = oral, 10 mg, with: eltrombopag 75 mg oral; scale = reference: eltrombopag alone; quantity = AUCinf increase; value = 55%
Structure (SMILES) = C=CC[C@@H]1/C=C(\C)C[C@H](C)C[C@H](OC)[C@H]2O[C@@](O)(C(=O)C(=O)N3CCCC[C@H]3C(=O)O[C@H](/C(C)=C/[C@@H]3CC[C@@H](O)[C@H](OC)C3)[C@H](C)[C@@H](O)CC1=O)[C@H](C)C[C@@H]2OC; target or system = CYP3A5; assay = metabolism, substrate; setting = unbound fraction unadjusted; quantity = Km; value = 1.4 µM
Structure (SMILES) = CCCC(CCC)C(=O)O; target or system = human neural embryonic cells; assay = cell viability; setting = unbound medium concentration; quantity = EC10; value = 215000 nM
Structure (SMILES) = CO[C@]1(C(=O)N[C@@H](C)c2ccc(-n3cc(F)cn3)nc2)CC[C@H](c2nc(C)cc(Nc3cc(C)[nH]n3)n2)CC1; target or system = BCRP; test system = C2BBe1; setting = with: Ko143; quantity = efflux ratio change; value = no effect
Structure (SMILES) = Cc1[nH]c(C)c(-c2ccc(OCCOc3ccc(C(F)(F)F)cn3)cc2)c(=O)c1Br; target or system = Plasmodium falciparum; assay = whole cell extended time; test system = 3D7; setting = 72 h; quantity = IC50; value = 140 nM
Structure (SMILES) = COc1cc2c(c(OC)c1OC)-c1c(cc3c(c1OC)OCO3)CC(C)C(C)C2 (centres unmarked); target or system = CYP3A, rat; assay = enzyme activity, inhibitor; test system = rat liver microsomes; quantity = Ki; value = 4200 nM
Structure (SMILES) = C=C(C)C(=O)OCCC(F)(F)C(F)(F)C(F)(F)C(F)(F)C(F)(F)C(F)(F)F; target or system = CYP2D6; setting = concentration not given; quantity = activity; value = inactive
Structure (SMILES) = CC12CC3CC(C)(C1)CC(N)(C3)C2; target or system = recombinant CYP2D6; assay = inhibitor; quantity = Ki; value = 94900 nM
Structure (SMILES) = CC(O)C(C)n1ncn(-c2ccc(N3CCN(c4ccc(OCC5COC(Cn6cncn6)(c6ccc(Cl)cc6Cl)O5)cc4)CC3)cc2)c1=O (centres unmarked); target or system = CYP3A4 human; assay = substrate; quantity = Vmax; value = 543 pmol/min/nmol
Structure (SMILES) = OC(Cn1cncn1)(Cn1cncn1)c1ccc(F)cc1F; target or system = UGT2B7; quantity = clearance; value = 0.0052 min⁻¹
Structure (SMILES) = CCC(=O)O[C@]1(C(=O)SCF)[C@H](C)C[C@H]2[C@@H]3C[C@H](F)C4=CC(=O)C=C[C@]4(C)[C@@]3(F)[C@@H](O)C[C@@]21C; target or system = Nr3c1 (Rattus norvegicus, UniProt P06536); test system = rat, spleen; setting = intravenous, 90 nmol/kg, 0.625 (unit not given); quantity = receptor occupancy; value = 81.1%
Structure (SMILES) = Cc1ccc(C)c(OCCCC(C)(C)C(=O)O)c1; target or system = UGT2B7; assay = O-glucuronidation, substrate; setting = unbound; quantity = Km; value = 2.17 µM
Structure (SMILES) = CC(=O)O[C@H]1C(=O)[C@@]2(C)[C@H]([C@H](OC(=O)c3ccccc3)[C@]3(O)C[C@H](OC(=O)[C@H](O)[C@@H](NC(=O)c4ccccc4)c4ccccc4)C(C)=C1C3(C)C)[C@]1(OC(C)=O)CO[C@@H]1C[C@@H]2O; target or system = NCI/ADR (Pgp+ drug-resistant); assay = cytotoxicity; quantity = IC50; value = 130 nM
Structure (SMILES) = CNC(=O)[C@@]12C[C@@H]1[C@@H](n1cnc3c(NCc4cccc(Cl)c4)nc(C#Cc4ccc(F)c(F)c4)nc31)[C@H](O)[C@@H]2O; target or system = ADRA2B (Homo sapiens, UniProt P18089); assay = radioligand binding (PDSP); quantity = Ki; value = 1000 to 10000 nM
Structure (SMILES) = Cc1ncc([N+](=O)[O-])n1CCO; target or system = CYP3A5; assay = substrate; quantity = Km; value = 4450 µM
Structure (SMILES) = CNCC(=O)O; target or system = N-methyltryptophan oxidase wild type; setting = bound to enzyme; quantity = pKa; value = 9.1
Structure (SMILES) = OC(Cn1cncn1)(Cn1cncn1)c1ccc(F)cc1F; target or system = UGT2B7; assay = enzyme activity, inhibitor; quantity = Ki; value = 73000 nM
Structure (SMILES) = CCC(C)n1ncn(-c2ccc(N3CCN(c4ccc(OCC5COC(Cn6cncn6)(c6ccc(Cl)cc6Cl)O5)cc4)CC3)cc2)c1=O (centres unmarked); target or system = BCRP (ABCG2); assay = inhibitor; setting = literature maximum; quantity = IC50; value = 10000 nM
Structure (SMILES) = NC(=O)c1cccnc1; target or system = CYP2E1 (human); assay = substrate; test system = human liver microsomes; quantity = Km; value = 2980 µM
Structure (SMILES) = CCNS(=O)(=O)C(F)(F)C(F)(F)C(F)(F)C(F)(F)C(F)(F)C(F)(F)C(F)(F)C(F)(F)F; target or system = CYP1A2; setting = concentration not given; quantity = activity; value = inactive
Structure (SMILES) = COC(=O)N[C@@H](C)CNc1nccc(-c2cn(C(C)C)nc2-c2cc(Cl)cc(NS(C)(=O)=O)c2F)n1; target or system = Cytochrome P450 1A2 (CYP1A2, Homo sapiens, UniProt P05177); assay = inducer; test system = human primary hepatocytes; setting = concentration not given; quantity = induction; value = increased
Structure (SMILES) = CCC(C)n1ncn(-c2ccc(N3CCN(c4ccc(OCC5COC(Cn6cncn6)(c6ccc(Cl)cc6Cl)O5)cc4)CC3)cc2)c1=O (centres unmarked); target or system = P-glycoprotein; setting = intestinal in vivo Ki; quantity = Ki; value = 13.5 nM
Structure (SMILES) = CCn1c(=O)c(-c2cc(NC(=O)Nc3ccccc3)c(F)cc2Br)cc2cnc(N)cc21; target or system = human alpha-1-acid glycoprotein; quantity = plasma protein binding; value = > 99.8%
Structure (SMILES) = FC(F)(F)C(F)(F)C(F)(F)C(F)(F)C(F)(F)C(F)(F)C(F)(F)C(F)(F)C(F)(F)C(F)(F)F; target or system = CYP2D6; setting = concentration not given; quantity = activity; value = inactive
Structure (SMILES) = C[C@H]1COCCN1c1nc(-c2cnc(N)cc2C(F)F)nc(N2CCOCC2)n1; target or system = SW948; quantity = GI50; value = 347 nM
Structure (SMILES) = CC(C)CCC[C@@H](C)[C@H]1CC[C@H]2[C@@H]3[C@H](O)CC4=CC(=O)CC[C@]4(C)[C@H]3CC[C@]12C; target or system = 7-alpha-hydroxycholest-4-en-3-one 12-alpha-hydroxylase (Homo sapiens, UniProt Q9UNU6); assay = binding; quantity = Kd; value = 18 nM

A few entries again:
Structure (SMILES) = CC(=O)O[C@H]1C(=O)[C@@]2(C)[C@H]([C@H](OC(=O)c3ccccc3)[C@]3(O)C[C@H](OC(=O)[C@H](O)[C@@H](NC(=O)c4ccccc4)c4ccccc4)C(C)=C1C3(C)C)[C@]1(OC(C)=O)CO[C@@H]1C[C@@H]2O; target or system = NCI/ADR (Pgp+ drug-resistant); assay = cytotoxicity; quantity = IC50; value = 130 nM
Structure (SMILES) = O=C1Nc2ccc(Cl)cc2[C@@](C#CC2CC2)(C(F)(F)F)O1; target or system = 2A6; setting = Simcyp compound file; quantity = intrinsic clearance; value = 0.47 µL/min/pmol
Structure (SMILES) = O=C(O)CN1CCN(CC(=O)O)CCN(CC(=O)O)CC1; target or system = Cu2+; setting = Cu2+ + L- to CuL+; quantity = log K; value = 21.6
Structure (SMILES) = CCC(=O)O[C@]1(C(=O)SCF)[C@H](C)C[C@H]2[C@@H]3C[C@H](F)C4=CC(=O)C=C[C@]4(C)[C@@]3(F)[C@@H](O)C[C@@]21C; target or system = Nr3c1 (Rattus norvegicus, UniProt P06536); test system = rat, spleen; setting = intravenous, 90 nmol/kg, 0.625 (unit not given); quantity = receptor occupancy; value = 81.1%
Structure (SMILES) = CC(O)c1cc(C(=O)N[C@@H](C)Cn2ccc(-c3ccc(C#N)c(Cl)c3)n2)[nH]n1 (some centres unmarked); target or system = BCRP (ABCG2); assay = inhibitor; setting = literature maximum; quantity = IC50; value = 1330 nM
Structure (SMILES) = COc1cc2c(c(OC)c1OC)-c1c(cc3c(c1OC)OCO3)CC(C)C(C)C2 (centres unmarked); target or system = CYP3A, rat; assay = enzyme activity, inhibitor; test system = rat liver microsomes; quantity = Ki; value = 4200 nM
